# Measured values of several laboratories.
# ± marks the error that the study gave.
SMILES,assay,test system,setting,scale,endpoint,result
Cc1c(P(=S)(c2ccccc2)c2ccccc2)n2ccccc2[n+]1C/C=C/c1ccccc1,,"mouse, plasma","intraperitoneal, 10 mg/kg, 8 h",,plasma concentration,99 ng/mL
CCn1c2ccccc2c2cc(C(O)c3cccc4ncccc34)ccc21 (stereo not drawn),,CD1 mice,"intraperitoneal, 4 weeks, once daily 5 days/week",,maximum tolerated dose,20 mg/kg
CC(C)C[C@H](NC(=O)[C@H](CCC(=O)O)NC(=O)[C@H](CCC(=O)O)NC(=O)[C@H](CC(=O)O)NC(=O)[C@H](CCC(=O)O)NC(=O)[C@H](CCC(=O)O)NC(=O)[C@H](CCC(=O)O)NC(=O)[C@@H](N)CC(=O)O)C(=O)O,,"rat, CSF","intranasal, 5.5 mg/kg, 180 min, below quantification limit, estimated",,concentration,0.225 ng/mL
N=C(N)NCCC[C@H](NC(=O)[C@H](Cc1c[nH]c2ccccc12)NC(=O)[C@H](CCC(N)=O)NC(=O)[C@H](Cc1c[nH]c2ccccc12)NC(=O)[C@@H](N)CCCNC(=N)N)C(=O)N[C@@H](Cc1c[nH]c2ccccc12)C(=O)N[C@@H](CCC(N)=O)C(=O)N[C@@H](Cc1c[nH]c2ccccc12)C(=O)N[C@@H](CCCN)C(N)=O,,human erythrocytes O+,"200 µg/mL, 2 h, 37 °C",,hemolysis,6.6%
COc1ccc(-c2cc(=O)c3c(OC)c(OC)c(OC)c(OC)c3o2)cc1OC,,"C57BL/6 mouse, male, feces","oral, 1% w/w in diet, 6 weeks, orange peel extract diet",reference: content in orange peel,tissue to peel content ratio,127%
COC(=O)N[C@H](C(=O)N1CCC[C@H]1C(=O)Nc1ccc([C@@H]2CC[C@@H](c3ccc(NC(=O)[C@@H]4CCCN4C(=O)[C@@H](NC(=O)OC)C(C)C)cc3)N2c2ccc(C(C)(C)C)cc2)cc1)C(C)C,,"healthy human volunteers, plasma","oral, dose not given, alone, escitalopram interaction study",,AUC(0-24),1270 ng·h/mL
CSCC[C@@H]1NC(=O)[C@H](CC(=O)O)NC(=O)CNC(=O)[C@H](CCCNC(=N)N)NC(=O)[C@H](C)NC(=O)[C@H](CCC(=O)O)NC(=O)[C@H](CCCNC(=N)N)NC(=O)[C@@H]2CSSC[C@@H]3NC(=O)[C@H](CO)NC(=O)[C@H]([C@@H](C)O)NC(=O)[C@@H]4CCCN4C(=O)[C@H](C)NC(=O)[C@H](Cc4c[nH]c5ccccc45)NC(=O)[C@H](CC(=O)O)NC(=O)CNC(=O)[C@H](CCCNC(=N)N)NC(=O)CNC(=O)[C@H](CCC(N)=O)NC(=O)[C@@H]4CCCN4C(=O)[C@@H](NC(=O)CNC(=O)C(C)F)CSSC[C@H](NC(=O)CNC(=O)[C@H](C)NC(=O)[C@H](CC(C)C)NC(=O)[C@H](CSSC[C@@H](C(=O)NCC(N)=O)NC(=O)[C@H]([C@@H](C)O)NC(=O)[C@H](CCCNC(=N)N)NC(=O)[C@@H]4CCCN4C1=O)NC(=O)[C@H](CC(=O)O)NC(=O)[C@H](CO)NC(=O)[C@H](CC(=O)O)NC(=O)[C@H](CCC(N)=O)NC(=O)[C@H](CO)NC3=O)C(=O)N[C@@H](C(C)C)C(=O)N2 (stereo partly drawn) [fluorine-18 labelled],,"nude mice U-87 MG xenograft, lungs","intravenous, 1 h",,tissue uptake,0.94 ± 0.08 %ID/g
CCCCCOc1ccc(-c2ccc(-c3ccc(C(=O)N[C@H]4C[C@@H](O)[C@@H](O)NC(=O)[C@@H]5[C@@H](O)[C@@H](C)CN5C(=O)[C@H]([C@@H](C)O)NC(=O)[C@H]([C@H](O)[C@@H](O)c5ccc(O)cc5)NC(=O)[C@@H]5C[C@@H](O)CN5C(=O)[C@H]([C@@H](C)O)NC4=O)cc3)cc2)cc1,,"human neonates, plasma","intravenous, 1.5 mg/kg/day after 3 mg/kg loading, 0-24 h",,AUC steady state,74900 ng·h/mL
CN[C@@](C)(C[18F])C(=O)O,,"SCID mouse U87 xenograft, brain","120 min, post injection",,tissue uptake,0.5 ± 0.1 %ID/g
COc1ccc(C[C@@H]2NC(=O)[C@H]([C@@H](C)O)NC(=O)[C@@H]3[C@@H]4CCN3C(=O)[C@@H]3Cc5cn(c6ccc(F)cc56)CCCCCCN(Cc5ccc(cc5)CCNC(=O)[C@]5(C)CCCN5C2=O)C(=O)CCC(=O)N[C@@H](C)C(=O)N[C@H](CNC(=O)CCCCC[N+](C)(C)C)C(=O)N[C@@H](Cc2cccc(c2)CNC(=O)CO4)C(=O)N3)cc1,,"fasted healthy humans, plasma","oral, 10 mg single dose, with 1800 mg Labrasol, geometric mean",,AUC(0-t),0.235 µM·h
[123I]c1cncc(OC[C@@H]2CCN2)c1,SPECT,"human, thalamus","intravenous bolus plus infusion, 7.8 mCi",reference: plasma,tissue/plasma ratio,42.2
CC[C@H](C)[C@@H]1NC(=O)[C@H]([C@@H](C)O)NC(=O)[C@@H](NC(=O)[C@H](Cc2ccccc2)NC(=O)[C@H](C)NC(=O)[C@H](CCCCN)NC(=O)[C@H](CCCCN)NC(=O)[C@H](C)NC(=O)[C@@H](NC(=O)[C@H](CCCCN)NC(=O)[C@H](C)NC(=O)[C@H](C)NC(=O)[C@@H](NC(=O)CNC(=O)[C@H](C)NC(=O)[C@@H](NC(=O)[C@H](CCCCN)NC(=O)[C@@H]2CCCN2C(=O)[C@H](Cc2ccccc2)NC(=O)[C@@H](N)Cc2ccccc2)C(C)C)C(C)C)C(C)C)CSSC[C@@H](C(=O)O)NC(=O)[C@H](CCCCN)NC(=O)[C@H](CCCCN)NC(=O)[C@H](CO)NC1=O,haemolysis,horse erythrocytes,"2 h, 37 °C",,HC10,62.2 µM

# For quick reference, copied from above:
SMILES,assay,test system,setting,scale,endpoint,result
N=C(N)NCCC[C@H](NC(=O)[C@H](Cc1c[nH]c2ccccc12)NC(=O)[C@H](CCC(N)=O)NC(=O)[C@H](Cc1c[nH]c2ccccc12)NC(=O)[C@@H](N)CCCNC(=N)N)C(=O)N[C@@H](Cc1c[nH]c2ccccc12)C(=O)N[C@@H](CCC(N)=O)C(=O)N[C@@H](Cc1c[nH]c2ccccc12)C(=O)N[C@@H](CCCN)C(N)=O,,human erythrocytes O+,"200 µg/mL, 2 h, 37 °C",,hemolysis,6.6%
CC[C@H](C)[C@@H]1NC(=O)[C@H]([C@@H](C)O)NC(=O)[C@@H](NC(=O)[C@H](Cc2ccccc2)NC(=O)[C@H](C)NC(=O)[C@H](CCCCN)NC(=O)[C@H](CCCCN)NC(=O)[C@H](C)NC(=O)[C@@H](NC(=O)[C@H](CCCCN)NC(=O)[C@H](C)NC(=O)[C@H](C)NC(=O)[C@@H](NC(=O)CNC(=O)[C@H](C)NC(=O)[C@@H](NC(=O)[C@H](CCCCN)NC(=O)[C@@H]2CCCN2C(=O)[C@H](Cc2ccccc2)NC(=O)[C@@H](N)Cc2ccccc2)C(C)C)C(C)C)C(C)C)CSSC[C@@H](C(=O)O)NC(=O)[C@H](CCCCN)NC(=O)[C@H](CCCCN)NC(=O)[C@H](CO)NC1=O,haemolysis,horse erythrocytes,"2 h, 37 °C",,HC10,62.2 µM
